Assay results gathered from unrelated publications.
Parts stem from different laboratories: compare values within a part only. “And” joins repeats or separate records; there may be more than shown. Positions count from the first letter of the parent shown.
Chain of UniProt O15530 (whole entry, looked up): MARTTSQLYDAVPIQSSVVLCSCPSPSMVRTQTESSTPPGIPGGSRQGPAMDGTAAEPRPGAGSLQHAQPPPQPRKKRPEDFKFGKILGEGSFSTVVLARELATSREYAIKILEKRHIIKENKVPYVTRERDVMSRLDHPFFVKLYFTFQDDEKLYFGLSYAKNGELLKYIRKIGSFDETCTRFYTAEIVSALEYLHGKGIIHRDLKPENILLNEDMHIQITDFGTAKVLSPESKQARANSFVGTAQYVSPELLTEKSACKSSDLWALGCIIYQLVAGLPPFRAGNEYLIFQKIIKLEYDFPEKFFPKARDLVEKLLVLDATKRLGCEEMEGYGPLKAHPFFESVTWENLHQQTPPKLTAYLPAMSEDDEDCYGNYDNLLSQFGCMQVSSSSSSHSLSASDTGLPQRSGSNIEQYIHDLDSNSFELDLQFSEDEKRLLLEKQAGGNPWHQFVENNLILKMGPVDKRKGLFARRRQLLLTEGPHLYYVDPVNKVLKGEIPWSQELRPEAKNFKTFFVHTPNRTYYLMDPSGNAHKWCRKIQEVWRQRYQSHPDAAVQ
Chain of UniProt Q9H3Y6 (whole entry, looked up): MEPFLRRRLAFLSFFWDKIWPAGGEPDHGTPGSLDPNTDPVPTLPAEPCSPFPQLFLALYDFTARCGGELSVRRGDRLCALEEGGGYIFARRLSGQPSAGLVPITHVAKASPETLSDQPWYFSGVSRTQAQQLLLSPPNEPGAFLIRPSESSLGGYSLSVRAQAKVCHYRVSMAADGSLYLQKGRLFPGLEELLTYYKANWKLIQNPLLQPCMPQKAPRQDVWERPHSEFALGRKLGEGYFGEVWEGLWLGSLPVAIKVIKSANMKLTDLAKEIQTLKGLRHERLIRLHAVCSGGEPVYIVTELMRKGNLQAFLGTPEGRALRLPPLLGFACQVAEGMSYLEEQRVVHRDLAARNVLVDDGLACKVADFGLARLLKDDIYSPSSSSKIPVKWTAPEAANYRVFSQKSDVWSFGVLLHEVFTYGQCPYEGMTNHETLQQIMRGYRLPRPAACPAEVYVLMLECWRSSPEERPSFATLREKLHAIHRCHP
Chain of UniProt P51451 (whole entry, looked up): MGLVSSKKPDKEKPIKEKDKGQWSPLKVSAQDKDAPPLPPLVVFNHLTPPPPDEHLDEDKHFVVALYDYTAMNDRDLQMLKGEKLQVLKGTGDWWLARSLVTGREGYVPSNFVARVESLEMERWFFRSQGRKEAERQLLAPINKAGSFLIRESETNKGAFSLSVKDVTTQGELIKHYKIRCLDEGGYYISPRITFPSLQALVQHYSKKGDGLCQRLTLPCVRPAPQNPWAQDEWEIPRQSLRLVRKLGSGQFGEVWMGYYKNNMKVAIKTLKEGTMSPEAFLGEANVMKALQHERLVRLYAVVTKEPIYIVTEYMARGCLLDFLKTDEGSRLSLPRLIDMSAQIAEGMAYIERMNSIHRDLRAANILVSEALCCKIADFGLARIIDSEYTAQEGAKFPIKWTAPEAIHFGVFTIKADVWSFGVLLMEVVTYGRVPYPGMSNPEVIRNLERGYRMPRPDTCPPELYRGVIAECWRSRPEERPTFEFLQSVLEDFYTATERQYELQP

Set 1
SMILES: CC(C)S(=O)(=O)c1cc2c(Nc3ccc4sc(C5CCCC5)nc4c3)ccnc2cc1OCCO
Quantity: viability
cell line = L929 RIPK3 knockout; concentration = 12.5 µM; together with = zVAD; value = 81.9% and 85.5% and 80.8% and 79.5% and 88.9%
cell line = L929; observed = necroptosis protection; technique = CCK-8; concentration = 1.111 µM; together with = TNF-α plus zVAD; value = 80.2%
cell line = L929 RIPK3 knockout; concentration = 3.125 µM; together with = zVAD; value = 98.2% and 92.8% and 91.8% and 90.1% and 98.5%
cell line = L929; observed = necroptosis protection; technique = CCK-8; concentration = 0.00457 µM; together with = TNF-α plus zVAD; value = 27%
cell line = L929 RIPK3 knockout; concentration = 100 µM; together with = zVAD; value = 11.6% and 17.8% and 14% and 11.5% and 13.9%
cell line = L929; technique = CCK-8; concentration = 3.125 µM; value = 92.6% and 92.7% and 92.9% and 98.5% and 97.7%
cell line = L929; observed = necroptosis protection; technique = CCK-8; concentration = 0.039 µM; together with = TNF-α plus zVAD; value = 46.6%
cell line = L929; technique = CCK-8; concentration = 12.5 µM; together with = zVAD; value = 81.6% and 96.3% and 78.5% and 76.4%
cell line = L929; technique = CCK-8; concentration = 12.5 µM; value = 77% and 92.3% and 74% and 73.9%
cell line = L929 RIPK3 knockout; concentration = 3.125 µM; value = 99.8% and 89.5% and 90.9% and 96.5%
cell line = L929; observed = necroptosis protection; technique = CCK-8; concentration = 0.37 µM; together with = TNF-α plus zVAD; value = 45.1%
cell line = L929; observed = necroptosis protection; technique = CCK-8; concentration = 2.5 µM; together with = TNF-α plus zVAD; value = 101%
cell line = L929; technique = CCK-8; concentration = 0.781 µM; value = 97.9% and 101% and 99% and 103%
cell line = L929; observed = necroptosis protection; technique = CCK-8; concentration = 0.625 µM; together with = TNF-α plus zVAD; value = 95.4%
cell line = L929; technique = CCK-8; concentration = 100 µM; value = 8.1% and 8.19% and 15% and 8.65%
cell line = L929; observed = necroptosis protection; technique = CCK-8; concentration = 0.041 µM; together with = TNF-α plus zVAD; value = 31.2%
cell line = L929; technique = CCK-8; concentration = 0.781 µM; together with = zVAD; value = 90.8% and 86.3% and 94.6% and 66.1%

Set 2
Target: CCND1, cyclin fold, Cln2 fusion (human)
Technique: yeast growth competition, sequencing
Matrix: yeast
Setting: strong parent motif
Reference: not given
Direction: higher = stronger binding
Quantity: normalised enrichment score
Starting sequence: viral docking peptide; YKVKRRLVFGADD
Change = R6S; value = 0.433
Change = D12Q; value = 1.09
Change = K2S; value = 2.89
Change = K4P; value = 0.928
Change = F9L; value = 0.189
Change = V8A; value = 0.785
Change = A11I; value = 1.84
Change = R5F; value = 0.32

Set 3
Target: HLA class I histocompatibility antigen, C alpha chain, allele C*04:01 (Homo sapiens, UniProt P10321)
Observed: peptide-MHC binding
Molecule type: peptide
Concentration: concentration not given
Quantity: binding
Sequence = MWHVTRGAF; value = inactive
Sequence = LYPTFYCLF; value = inactive
Sequence = MTYSHHACR; value = inactive
Sequence = FPRYPLNVL; value = inactive
Sequence = MMFDAMGAL; value = inactive
Sequence = RRFNRTKPM; value = inactive
Sequence = RRHWGGNVL; value = inactive
Sequence = YAMAIRQAI; value = inactive

Set 4
SMILES: N/C(=N\[N+](=O)[O-])N/N=C\c1ccc(-c2cccc([N+](=O)[O-])c2)o1
Observed: enzyme activity
Action: inhibitor
Concentration: 0.5 µM
Reference: control
Quantity: remaining activity
target = Tyrosine-protein kinase Srms (SRMS, Homo sapiens, UniProt Q9H3Y6); value = 90.2%
target = Testis-specific serine/threonine-protein kinase 2 (TSSK2, Homo sapiens, UniProt Q96PF2); value = 101%
target = 3-phosphoinositide-dependent protein kinase 1 (PDPK1, Homo sapiens, UniProt O15530); value = 94.6%
target = Tyrosine-protein kinase Blk (BLK, Homo sapiens, UniProt P51451); value = 102%

Set 5
Target: Muscarinic acetylcholine receptor M1 (CHRM1, Homo sapiens, UniProt P11229)
Chain of UniProt P11229 (whole entry, looked up): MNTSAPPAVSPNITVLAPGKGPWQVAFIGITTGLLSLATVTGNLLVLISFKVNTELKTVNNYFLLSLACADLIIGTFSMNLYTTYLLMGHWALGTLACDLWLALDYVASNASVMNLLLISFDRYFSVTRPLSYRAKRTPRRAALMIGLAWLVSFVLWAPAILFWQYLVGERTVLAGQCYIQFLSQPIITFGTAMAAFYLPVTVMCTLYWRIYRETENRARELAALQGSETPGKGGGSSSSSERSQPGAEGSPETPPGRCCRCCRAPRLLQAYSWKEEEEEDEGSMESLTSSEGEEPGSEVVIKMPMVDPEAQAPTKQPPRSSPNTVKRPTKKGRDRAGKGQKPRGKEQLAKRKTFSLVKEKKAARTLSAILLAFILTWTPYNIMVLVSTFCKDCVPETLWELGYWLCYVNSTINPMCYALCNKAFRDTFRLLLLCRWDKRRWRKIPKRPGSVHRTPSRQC
Observed: ligand displacement
Concentration: 10 µM
Quantity: inhibition
Compound = Nc1nc(NCc2ccccc2)nc(-c2cccc(CO)c2)n1; value = 10.8%
Compound = CCOc1ccc(S(=O)(=O)Nc2ccc(Cl)cc2C#Cc2cnc(C(=O)O)cc2OC)c2ncccc12; value = 16.3%
Compound = O=C(Nc1ccc(Oc2ccc(F)cc2)cc1)N1CCc2ncccc2[C@H]1c1ccc(F)cc1; value = -2.98%

A few entries again (set 1):
cell line = L929; observed = necroptosis protection; technique = CCK-8; concentration = 1.111 µM; together with = TNF-α plus zVAD; value = 80.2%
cell line = L929; observed = necroptosis protection; technique = CCK-8; concentration = 0.039 µM; together with = TNF-α plus zVAD; value = 46.6%
cell line = L929; observed = necroptosis protection; technique = CCK-8; concentration = 2.5 µM; together with = TNF-α plus zVAD; value = 101%
cell line = L929; observed = necroptosis protection; technique = CCK-8; concentration = 0.625 µM; together with = TNF-α plus zVAD; value = 95.4%
